Measured values from different studies.
Compare with care: the assays were run in different laboratories. ± marks the error that the study gave.

| Structure (SMILES) | target | test | test system | setting | IC50 |
| --- | --- | --- | --- | --- | --- |
| NC[C@@H]1O[C@H](O[C@H]2[C@@H](O)[C@H](O[C@@H]3[C@@H](O)[C@H](N)C[C@H](N)[C@H]3O[C@H]3O[C@H](CO)[C@@H](OCCCO)[C@H](O)[C@H]3N)O[C@@H]2CO)[C@H](N)[C@@H](O)[C@@H]1O | rabbit reticulocyte ribosome | luciferase translation, cell-free translation | rabbit reticulocyte lysate |  | 374 ± 117 µg/mL |
| Cc1cccc(C)c1NC(=O)[C@H]1CCN(Cc2ccccc2)C1 | Nav1.4, Pelophylax lessonae | sodium current, use-dependent blocker, vaseline gap voltage clamp | skeletal muscle fibres | 10 Hz pulse trains | 2.3 ± 0.1 µM |
| CN[C@@H]1[C@H](O)[C@H](NC)[C@H]2O[C@]3(O)[C@H](O[C@@H]2[C@H]1O)O[C@H](C)C[C@@]3(O)CNCc1ccc(F)cc1 | Mycolicibacterium smegmatis 70S ribosome | translation, luciferase reporter |  |  | 0.74 µg/mL |
| O=c1cc(-c2ccc(O)c(O)c2)oc2cc(O[C@@H]3O[C@H](CO)[C@@H](O)[C@H](O)[C@H]3O)cc(O)c12 | protease | enzyme activity, inhibitor |  | 10 min, 25 °C, with: casein 1% | 23.8 ± 0.1 µg/mL |
| C=CCO[C@H]1[C@H](O)[C@@H](N)[C@@H](O[C@H]2[C@H](O[C@@H]3O[C@H](CO)[C@@H](O[C@H]4O[C@@H](CN)[C@@H](O)[C@H](O)[C@H]4N)[C@H]3O)[C@@H](O)[C@H](N)C[C@@H]2N)O[C@@H]1CO | rabbit reticulocyte ribosome | luciferase translation, cell-free translation | rabbit reticulocyte lysate |  | 50 ± 16.8 µg/mL |
| Cc1cccc(C)c1NC(=O)[C@H]1CCCN1Cc1ccccc1 | Nav1.4, Pelophylax lessonae | sodium current, use-dependent blocker, vaseline gap voltage clamp | skeletal muscle fibres | 10 Hz pulse trains | 10.1 ± 1.8 µM |
| COCOC[C@H]1O[C@H](O[C@H]2[C@H](O[C@@H]3O[C@H](CO)[C@@H](O[C@H]4O[C@@H](CN)[C@@H](O)[C@H](O)[C@H]4N)[C@H]3O)[C@@H](O)[C@H](N)C[C@@H]2N)[C@H](N)[C@@H](O)[C@@H]1O | rabbit reticulocyte ribosome | luciferase translation, cell-free translation | rabbit reticulocyte lysate |  | 91.2 ± 18.7 µg/mL |
| CCN(CC)CCN1C(=O)c2ccc3c4cccc5c(NCCN)ccc(c6ccc(c2c36)C1=O)c54 | human telomerase | modified TRAP |  | cell-free | 4.1 ± 0.5 µM |
| CN[C@H]1[C@@H](O)[C@@H](NC)C[C@H]2O[C@@H]3O[C@H](C)C[C@@H](NC(=O)Cc4ccccn4)[C@]3(O)O[C@H]12 | Mycolicibacterium smegmatis 70S ribosome | translation, luciferase reporter |  |  | 9.5 µg/mL |
| NC[C@@H]1O[C@H](O[C@H]2[C@@H](O)[C@H](O[C@@H]3[C@@H](O)[C@H](N)C[C@H](N)[C@H]3O[C@H]3O[C@H](CO)[C@@H](OCCO)[C@H](O)[C@H]3N)O[C@@H]2CO)[C@H](N)[C@@H](O)[C@@H]1O | rabbit reticulocyte ribosome | luciferase translation, cell-free translation | rabbit reticulocyte lysate |  | 24 ± 5.1 µg/mL |
| CCN(CC)CCN1C(=O)c2ccc3c4cccc5c(N6CCNCC6)ccc(c6ccc(c2c36)C1=O)c54 | human telomerase | modified TRAP |  | cell-free | 6.7 ± 0.3 µM |
| N/C(=N\O)c1ccc2c(c1)Oc1ccccc1N2Cc1ccc(C(=O)NO)cc1 | HeLa nuclear HDACs | enzyme activity, inhibitor |  | with: Boc-Lys(Ac)-AMC | 0.29 ± 0.02 µM |
| NC[C@@H]1O[C@H](O[C@H]2[C@@H](O)[C@H](O[C@@H]3[C@@H](O)[C@H](N)C[C@H](N)[C@H]3O[C@H]3O[C@@H]4COCO[C@H]4[C@H](O)[C@H]3N)O[C@@H]2CO)[C@H](N)[C@@H](O)[C@@H]1O | rabbit reticulocyte ribosome | luciferase translation, cell-free translation | rabbit reticulocyte lysate |  | 130 ± 41.4 µg/mL |
| N/C(=N\O)c1ccc2c(c1)N(Cc1ccc(C(=O)NO)cc1)c1ccccc1O2 | HeLa nuclear HDACs | enzyme activity, inhibitor |  | with: Boc-Lys(Ac)-AMC | 0.29 ± 0.01 µM |
| O=C1c2ccc3c4cccc5cccc(c6ccc(c2c36)C(=O)N1CCN1CCCCC1)c54 | human telomerase | modified TRAP |  | cell-free | 8.6 ± 0.6 µM |
| O=C([O][Ti+2][O]C(=O)c1ccc(P(c2ccccc2)c2ccccc2)cc1)c1ccc(P(c2ccccc2)c2ccccc2)cc1.[Cl][Au].[Cl][Au].c1cc[cH-]c1.c1cc[cH-]c1 | thioredoxin reductase human | enzyme activity, inhibitor | CAKI-1 | 12 h | 4.75 µM |

Excerpt of the above:
| Structure (SMILES) | target | test | test system | setting | IC50 |
| --- | --- | --- | --- | --- | --- |
| CN[C@H]1[C@@H](O)[C@@H](NC)C[C@H]2O[C@@H]3O[C@H](C)C[C@@H](NC(=O)Cc4ccccn4)[C@]3(O)O[C@H]12 | Mycolicibacterium smegmatis 70S ribosome | translation, luciferase reporter |  |  | 9.5 µg/mL |
